# Assay results pooled from the literature.
# A part holds a random share of what one study measured.
# Sequence of UniProt P08913 (whole entry, looked up): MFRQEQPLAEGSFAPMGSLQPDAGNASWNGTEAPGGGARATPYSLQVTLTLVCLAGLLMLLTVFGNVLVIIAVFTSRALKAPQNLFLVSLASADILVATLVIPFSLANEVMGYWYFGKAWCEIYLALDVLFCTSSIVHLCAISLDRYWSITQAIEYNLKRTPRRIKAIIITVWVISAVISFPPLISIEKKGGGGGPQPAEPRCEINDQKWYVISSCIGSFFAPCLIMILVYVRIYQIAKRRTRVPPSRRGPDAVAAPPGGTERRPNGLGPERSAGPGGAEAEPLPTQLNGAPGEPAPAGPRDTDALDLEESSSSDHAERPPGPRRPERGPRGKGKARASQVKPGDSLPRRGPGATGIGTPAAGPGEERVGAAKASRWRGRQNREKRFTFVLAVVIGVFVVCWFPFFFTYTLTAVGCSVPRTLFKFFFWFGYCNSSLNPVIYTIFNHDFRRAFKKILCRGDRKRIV

# Sample 1
# Target: Ras GTPase-activating protein-binding protein 1, full length (G3BP1, Homo sapiens, UniProt Q13283)
# Sequence of UniProt Q13283 (whole entry, looked up): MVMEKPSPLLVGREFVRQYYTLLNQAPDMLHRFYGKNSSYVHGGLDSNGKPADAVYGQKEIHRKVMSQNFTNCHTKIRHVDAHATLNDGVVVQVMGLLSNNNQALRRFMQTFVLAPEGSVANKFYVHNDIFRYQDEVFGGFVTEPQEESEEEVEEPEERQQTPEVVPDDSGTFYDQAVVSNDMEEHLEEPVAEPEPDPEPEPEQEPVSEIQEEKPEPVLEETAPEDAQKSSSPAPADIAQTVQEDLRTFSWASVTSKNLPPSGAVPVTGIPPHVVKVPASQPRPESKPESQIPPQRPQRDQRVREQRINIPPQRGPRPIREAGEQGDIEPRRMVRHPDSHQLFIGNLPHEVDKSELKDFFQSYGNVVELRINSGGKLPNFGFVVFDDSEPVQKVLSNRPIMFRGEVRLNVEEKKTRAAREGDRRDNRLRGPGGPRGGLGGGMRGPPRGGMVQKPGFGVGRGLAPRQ
# Technique: RNA Bind-n-Seq
# Molecule type: RNA
# Sample: in vitro
# Tested at: 200 nM
# Notes: whole 134-nt RNA, ends assumed
# With: 150 mM LiCl
# Reference: input library
# Reading: higher = stronger binding
# All molecules: 7-deaza-guanosine replaces G
# Constant ends, left off below: GGGAGUUCUACAGUCCGACGAUC … UGGAAUUCUCGGGUGUCAAGG
Oligonucleotide,log2 enrichment
UGGCCCUGGUGGCAUGCGGGGAGGAAGAGGUGGCCUCAUGGAUCGUGGUGGUCCCGGUGGAAUGUUCAGAGGUGGCCGUGGUGGAGACAG,-0.327
GUCCUGUGCUACACAUCGUAUGUACCGAAUCGGGUUUUUGGGAAAAAGGGUUUUUGGGAAAGUAUUAUGUUACGCCGUUCGGAUCUGCAC,-2.25
CACAGACAACACGCACCCACACAGACACAGAGGGAAGGGGUUGGGAUGGGGACAGGGUGAACAGCAGGGCGGGGUAGGACCCCAGCCCCU,-0.7
AAGUCCUGUGCUACACAUCGUAUGUACCGAAUCGGGAAAAGGGGAAAAGGAAAAGGGAAAGUAUUAUGUUACGCCGUUCGGAUCUGCACU,0.351
CCUCAAGUCCUGUGCUACACAUCGUAUGUACCGAAUCGGCCGGGCCGGCCGGGAAAGUAUUAUGUUACGCCGUUCGGAUCUGCACUUCCA,0.433
AAGUCCUGUGCUACACAUCGUAUGUACCGAAUCGGGUUUUUGGGAGGGUUUUUGGGAAAGUAUUAUGUUACGCCGUUCGGAUCUGCACUU,-0.547
UCCUCAAGUCCUGUGCUACACAUCGUAUGUACCGAAUCGGAGGAGGGAGGGGAAAGUAUUAUGUUACGCCGUUCGGAUCUGCACUUCCAG,-0.102
GUCCUGUGCUACACAUCGUAUGUACCGAAUCGGGAAAAAGGGUUUGGGUUUUUUUGGGAAAGUAUUAUGUUACGCCGUUCGGAUCUGCAC,-1.72

# Sample 2
# Target: Hepatocyte nuclear factor 3-alpha (Foxa1, Mus musculus, UniProt P35582, residues 1-468, full length assumed)
# Technique: EMSA with sequencing
# Molecule type: double-stranded DNA, one strand shown
# Sample: in vitro
# Tested at: 10 and 20 nM
# Notes: whole designed probe, mean of two concentrations, ends assumed
# Reference: negative control set to 0
# Reading: higher = stronger binding
# Constant ends, left off below: GTGAGCGGTGCCCATTGATGGGGAAC … TTTCACTGGGATCGTGGGGAC
# Residues (chain): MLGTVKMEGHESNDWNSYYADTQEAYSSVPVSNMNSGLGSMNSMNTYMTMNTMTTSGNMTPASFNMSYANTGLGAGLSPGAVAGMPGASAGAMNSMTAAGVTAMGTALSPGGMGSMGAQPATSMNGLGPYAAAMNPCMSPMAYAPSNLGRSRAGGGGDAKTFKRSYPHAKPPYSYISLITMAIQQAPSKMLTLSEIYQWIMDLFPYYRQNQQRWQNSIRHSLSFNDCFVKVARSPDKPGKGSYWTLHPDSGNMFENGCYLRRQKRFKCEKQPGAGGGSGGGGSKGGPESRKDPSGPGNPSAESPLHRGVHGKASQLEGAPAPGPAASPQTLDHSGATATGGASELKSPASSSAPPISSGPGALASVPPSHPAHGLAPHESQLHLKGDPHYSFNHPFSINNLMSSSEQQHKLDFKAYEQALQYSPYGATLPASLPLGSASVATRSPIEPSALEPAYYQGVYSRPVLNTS
Oligonucleotide,normalised bound fraction
AATCAGTTCAAAATAAAAAATATAAACCATTCAAGGAAACAAACTCTACATCATCCTAGGCCATCGTCAATTAGGGAAAGTCAGTAGGCAGAGTAAACAGGAAAATGTGTGCCTCACAATTTGAGATAATAGGACACTGAAAAATAAACTATAAAATTTGTGGCCGGGTGCAGTGGCTCACACCTGTAATCCC,0.164 ratio
ATCTTCCCCCTCTTCCTTGCCCCACCAGCTCACCTTCCCGGGTTATTTGCACAAAGGAAAATAAATAAAGCCGGCATTCGTTAACGCAGTTCTGGCGCAAACTGCTGTTTGCTCTGGATGAATCATGGTCCTTTGGCGAGGCGTGGCTCCGGGAGAGCAAAGCACCGTGTCAGGGCCATGATCCGGGGTGGCC,0.371 ratio
TTTGAAATAGTTCATAATTTTAAAAGCAGCAACACTAACATTGTTCAGATTATTATAAAAGCATATATAAAGTTAGAGGATAGATGTTATATGTAATCTTGAAGAAAGACTTAATATTAAATATCTCAGAGTATACACTTTATGAATAGAAATGGTGTATCCTTTTTTCCTAAGGAACGGAAGAAATTCACAT,-0.0131 ratio
ATCTTCCCCCTCTTCCTTGCCCCACCAGCTCACCTTCCCGGGTTATTTGCAGATAGGAAAATAAATAAAGCCGGCATTCGTTAACGCAGTTCACGCGCATACTGCTGTTTGCTCTGGATGAATCATGGTCCTTTGGCGACGCCAGGCTCCGGGAGAGCAAAGCACCGTGTCAGGGCCATGATCCGGGCTCGCC,0.343 ratio
CATTAGAGTCAAAGTTGTTAAGGGGAGCTAGTCATAGCTACCACGTGGCCAGGCATGTGGAACCAGATGAATCATCAACACCAGGCACATAAAGTAAATAGATGAATAATGCTGACAACCTAGTTCATAGTGACACACTACTTGAGATATATAGAATAACATTATTACCCAGTAAGTATGTGAACATTCCGAT,0.415 ratio
TACTGTGCAGCTGTAATTAGGCAGAGCACCAGGATACTTTCTGTTTTCAGCAAACACAGTATACAACAACATGTATGGTATACTTCCATTCATGTTTACTCTGAGAAATGACAGTGGGATCTGGAGTATGTGGCAGATTCATTTCTGTTACATAATCTTTTGTTTCTTTTCAATTTTTTACCATATGTATGTT,0.259 ratio
ATCTTCCCCCTCTTCCTTGCCCCACCAGCTCACCTACGGGGGTTATTTGCAGATAGGAAAATAAATAAAGCCGGCATTCGTTAACCCTCTTCACGCGCATACTGCTGTTTGCTCTGGATGAATCATGGTCCTTTGGCGAGGCGTGGCTCCGGGAGAGCAAAGCACCGTGTCAGGGCCATGATCCGGGCTCGCC,0.339 ratio
CTCGGAATTTAGATACATTAACCAGCTTTTCAGCAAATGTCACTTACCATAAGTTAGTTATTGTTTGTTTGTTTTTTGGGTATGTCAATTATATGTAATCTTGGGGAAGCATTTCTAATTAATGTATTCATCAAATGTTATTTGTTTTAAAATAATTTTATTGTCCTTCATTACTAGGTTCTAAAATTGATAT,0.499 ratio

# Other studies, line by line
Substance,tested on,assay,test system,setting,endpoint,result
"PGRMC1 (Homo sapiens, UniProt O00264)","DHCR24 (Homo sapiens, UniProt Q15392)",cross-linking MS,cell fractions,with: DSSO,cross-linked residues,K102 to K446
O=C(NNS(=O)(=O)c1ccccc1)c1cc(-c2ccnnc2)ccc1F,"Alpha-2A adrenergic receptor (ADRA2A, Homo sapiens, UniProt P08913)",cell-free assay,,10 µM,inhibition,68.5%
